Measured values of several laboratories.
Protocols differ between the studies behind these lines. ± gives the spread as reported.
Cell line: MV4-11

Structure (SMILES) | observed | method | item | time | quantity | result
COc1cc(C(C)(C)O)c(OC)cc1-c1cc(C(C)=O)n2ccccc12 | cell growth or viability | ATP luminescence |  |  | IC50 | 2350 nM
CCOc1cncc(-c2ccc(NC(=O)C3(c4ccnc(NS(=O)(=O)C5CC5)n4)CCOCC3)nc2)n1 | cell proliferation | CellTiter-Glo |  | 72 h | IC50 | 104 nM
COc1cc(-c2cn(C)c(=O)c3cnccc23)cc(OC)c1Cn1ccnc1 | cell growth or viability | ATP luminescence |  |  | IC50 | 6500 nM
CC(C)c1ccc(N(C)c2ccc3c(c2)OCC[C@H]3CNc2cnccc2C(=O)O)cc1 | cell viability | CellTiter-Glo |  | 7 days | IC50 | 4.02 nM
COc1cc(-c2cc(C(C)=O)n3ccccc23)cc(OC)c1CN(C)C | cell growth or viability | ATP luminescence |  |  | IC50 | 2290 nM
CNS(=O)(=O)Nc1nccc(Cc2c(C)c3ccc(Oc4ncccc4F)cc3oc2=O)c1F | cell viability |  |  | 7 days | IC50 | 7.22 nM
O=c1c(-c2cnn(-c3ccccc3)c2)c(C(F)(F)F)oc2c(O)c(O)ccc12 | apoptosis | annexin V flow cytometry |  |  | EC50 | ~13 µM
CCN(C(=O)c1cc(F)ccc1Oc1nncnc1N1CCC2(C1)CN(C(CCCN(C)CCOC)C(C)C)C2)C(C)C (stereo not drawn) |  | QuantiGene | MEIS1 mRNA |  | IC50 | 1190 ± 148 nM
Cc1sc2c(c1C)C(c1ccc(Cl)cc1)=N[C@@H](CC(=O)NCCN(C)CCCCNC(=O)CCCCOc1cccc3c1C(=O)N([C@H]1CCC(=O)NC1=O)C3=O)c1nnc(C)n1-2 | cell growth or viability | CCK-8 |  | 72 h | IC50 | 100 nM

Excerpt of the above:
Structure (SMILES) | observed | method | item | time | quantity | result
CNS(=O)(=O)Nc1nccc(Cc2c(C)c3ccc(Oc4ncccc4F)cc3oc2=O)c1F | cell viability |  |  | 7 days | IC50 | 7.22 nM
